Measured values gathered from unrelated publications.
Protocols differ between the studies behind these lines. Several values in a cell are separate wells, animals, samples, runs or records. ± marks the error that the study gave.
APP Aβ40: Amyloid-beta precursor protein, Aβ40 (APP, Homo sapiens, UniProt P05067)
UniProt P05067, sequence (whole entry, looked up): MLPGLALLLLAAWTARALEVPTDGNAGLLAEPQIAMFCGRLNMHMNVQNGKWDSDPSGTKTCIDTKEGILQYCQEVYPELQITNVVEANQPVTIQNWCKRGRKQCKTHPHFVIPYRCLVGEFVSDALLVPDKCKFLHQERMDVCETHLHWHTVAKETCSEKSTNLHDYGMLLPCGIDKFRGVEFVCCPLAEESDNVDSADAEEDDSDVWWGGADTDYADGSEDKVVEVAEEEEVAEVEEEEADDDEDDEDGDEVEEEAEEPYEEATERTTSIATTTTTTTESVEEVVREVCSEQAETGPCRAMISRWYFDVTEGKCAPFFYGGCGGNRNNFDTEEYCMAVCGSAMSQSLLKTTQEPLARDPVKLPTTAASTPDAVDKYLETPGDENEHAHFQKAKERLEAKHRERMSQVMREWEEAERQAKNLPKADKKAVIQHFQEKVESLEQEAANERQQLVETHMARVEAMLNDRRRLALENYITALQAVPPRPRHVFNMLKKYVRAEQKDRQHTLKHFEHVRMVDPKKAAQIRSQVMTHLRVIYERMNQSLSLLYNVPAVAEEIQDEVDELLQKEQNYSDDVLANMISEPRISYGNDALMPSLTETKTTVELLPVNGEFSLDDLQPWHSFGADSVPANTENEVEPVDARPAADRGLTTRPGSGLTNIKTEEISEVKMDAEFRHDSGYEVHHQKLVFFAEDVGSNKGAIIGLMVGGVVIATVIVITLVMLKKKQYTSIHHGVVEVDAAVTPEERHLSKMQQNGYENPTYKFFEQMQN
APP: Amyloid-beta precursor protein (APP, Homo sapiens, UniProt P05067)
APP Aβ42 aggregates: Amyloid-beta precursor protein, Aβ42 aggregates (APP, Homo sapiens, UniProt P05067)
APP monomer: Amyloid-beta precursor protein, monomer (APP, Homo sapiens, UniProt P05067)
APP amyloid-beta aggregates: Amyloid-beta precursor protein, amyloid-beta aggregates (APP, Homo sapiens, UniProt P05067)

| Structure (SMILES) | target | assay | system | setting | scale | endpoint | result |
| --- | --- | --- | --- | --- | --- | --- | --- |
| CC(C)C[C@@H]1NC(=O)CN(C)C(=O)CCCC(=O)NCCCC[C@@H](C(=O)N[C@@H](CCCNC(=N)N)C(N)=O)NC(=O)[C@H](Cc2ccccc2)NC(=O)[C@H](Cc2ccccc2)NC(=O)[C@H](C(C)C)NC1=O | APP Aβ40 | aggregation, ThT fluorescence | – | 5-fold molar excess, pH 7.4, 37 °C, with: Aβ 40 µM | – | inhibition | ~95% |
| [123I]c1ccc2nc(-c3ccc(-n4ccnn4)nc3)cn2c1 | Amyloid-beta precursor protein, amyloid-beta (APP, Homo sapiens, UniProt P05067) | SPECT | Alzheimer's disease patients, cortex over cerebellum | from 150 min post-injection | relative to: healthy controls | SUVR increase | 58% and ~60% |
| CC[C@H](C)[C@H](NC(=O)[C@@H](NC(=O)[C@@H](N)C(C)C)C(C)C)C(=O)N[C@@H](C)C(=O)O | APP | amyloid aggregation, inhibitor, fluorescence | – | 4 µM, 24 h | – | inhibition | 60.6% |
| COCCOCCOCCOCCOC(=O)/C(C#N)=C/c1ccc2cc(N3CCCCC3)ccc2c1 | APP Aβ42 aggregates | fluorescence | – | free probe, 5% DMSO in water | – | excitation maximum | 420 nm |
| CC(C)C[C@@H]1NC(=O)CN(C)C(=O)CCCCC(=O)NCCCC[C@@H](C(=O)N[C@@H](CCCNC(=N)N)C(N)=O)NC(=O)[C@H](Cc2ccccc2)NC(=O)[C@H](Cc2ccccc2)NC(=O)c2ccccc2NC1=O | APP monomer | amyloid aggregation, inhibitor, fluorescence | – | 40 µM, pH 7.4 | – | inhibition | 69% |
| CC[C@H](C)[C@@H]1NC(=O)[C@H]([C@@H](C)O)NC(=O)[C@H](Cc2ccc(O)cc2)NC(=O)[C@H](CCCNC(=N)N)NC(=O)[C@@H]2CCCN2C(=O)[C@H]2CCCN2C(=O)[C@H]([C@@H](C)O)NC(=O)[C@H](C(C)C)NC(=O)[C@H](C(C)C)NC(=O)[C@H](CCCCN)NC(=O)[C@H](CO)NC(=O)[C@@H](CCC(N)=O)NC(=O)[C@H](CO)NC(=O)[C@H](Cc2ccc(O)cc2)NC(=O)[C@H](CO)NC(=O)[C@H](Cc2ccc(O)cc2)NC(=O)[C@@H]2CCCN2C(=O)[C@H](CO)NC(=O)[C@H](CC(C)C)NC(=O)[C@H](CC(C)C)NC(=O)[C@H](C)NC(=O)[C@H](C)NC1=O | APP Aβ40 | amyloid-beta aggregation, filtration | – | 3 µM, 0 or 24 h, 37 °C, 0.45 µm filter, with: 30 µM amyloid-beta | – | filterable fraction | ~90% |
| O=C(C=Cc1ccc(O)c(OC(F)(F)F)c1)C1=C(C=Cc2ccc(O)c(OC(F)(F)F)c2)OCC1 | APP | Aβ aggregation, SDS-PAGE western blot, refers to: Aβ1-42 75-200 kDa band | – | 30 µM, 24 h, 37 °C, with: Aβ1-42 10 µM | relative to: DMSO | band density | 3060 ± 854% |
| COc1cc(-c2nc3ccccc3s2)cc(CN(Cc2ccccn2)Cc2ccccn2)c1O | Amyloid-beta precursor protein, Aβ42 copper-bound (APP, Homo sapiens, UniProt P05067) | H2O2 production by Cu-Aβ42, inhibitor, HRP/Amplex Red | – | concentration not given, with: sodium ascorbate | – | inhibition | > 65% |
| CC[C@H](C)[C@H](NC(=O)[C@@H](NC(=O)C(C)(C)N)C(C)C)C(=O)N[C@@H](C)C(N)=O | APP | amyloid aggregation, inhibitor, fluorescence | – | 2 µM, 24 h | – | inhibition | 64.5% |
| NC(=O)CN(Cc1ccccc1)C(=O)CN(CCOc1cc(-c2ccccn2)nc(-c2ccccn2)c1)C(=O)CNCc1ccccn1 | Amyloid-beta precursor protein, Cu-bound amyloid-beta 1-40 (APP, Homo sapiens, UniProt P05067) | ROS production, inhibitor | – | 10 µM, 30 min, pH 7.4, with: Aβ1-16 10 µM, Cu2+ 9 µM | – | ascorbate consumption | 71% |
| CC(C)C[C@@H]1NC(=O)CN(C)C(=O)CCCCC(=O)NCCCC[C@@H](C(=O)N[C@@H](CCCNC(=N)N)C(N)=O)NC(=O)[C@H](Cc2ccccc2)NC(=O)[C@H](Cc2ccccc2)NC(=O)[C@H](C(C)C)NC1=O | Amyloid-beta precursor protein, Aβ40 fibrils (APP, Homo sapiens, UniProt P05067) | fibril disruption | – | 2-fold molar excess, pH 7.4, 37 °C, with: preformed Aβ1-40 fibrils | – | ThT fluorescence | decreased |
| COc1cc(C=CC(=O)CC(=O)C=Cc2ccc(OCC(=O)O)c(OC)c2)ccc1O | APP | Aβ aggregation, SDS-PAGE western blot, refers to: Aβ1-42 75-200 kDa band | – | 30 µM, 24 h, 37 °C, with: Aβ1-42 10 µM | relative to: DMSO | band density | 304 ± 53% |
| CC[C@H](C)[C@H](NC(=O)[C@@H]1CCCN1C(=O)[C@@H](N)C(C)C)C(=O)N[C@@H](C)C(N)=O | APP | amyloid aggregation, inhibitor, fluorescence | – | 4 µM, 24 h | – | inhibition | 16.3% |
| CC(=O)N[C@@H](CC(C)C)C(=O)Nc1ccccc1C(=O)N[C@@H](Cc1ccccc1)C(=O)N[C@@H](Cc1ccccc1)C(=O)N[C@@H](CCCCN)C(N)=O | APP monomer | amyloid aggregation, inhibitor, fluorescence | – | 40 µM, pH 7.4 | – | inhibition | 40% |
| [11CH3]Nc1ccc(-c2nc3ccc(O)cc3o2)cn1 | APP | binding, PET, reference Logan | Alzheimer's disease patients, prefrontal cortex | – | relative to: cerebellum | distribution volume ratio | 1.64 ± 0.19 |
| CC[C@H](C)[C@H](NC(=O)[C@H](Cc1ccccc1)NC(=O)[C@@H](N)C(C)C)C(=O)N[C@@H](C)C(N)=O | APP | amyloid aggregation, inhibitor, fluorescence | – | 2 µM, 24 h | – | inhibition | 100% |
| COCCOCCOCCOC(=O)/C(C#N)=C/c1ccc2cc(NCCN3CCOCC3)ccc2c1 | APP Aβ42 aggregates | fluorescence | – | with: aggregated Abeta42 5 µM | – | excitation maximum | 430 nm |
| CCCCN(CCCC)c1ccc(C=C(C#N)C(=O)OCCOCCOCCOC)cc1 | APP amyloid-beta aggregates | IgG-amyloid beta binding, inhibitor, ELISA | – | with: aggregated amyloid beta | – | maximum inhibition | 91% |
| CC[C@H](C)[C@H](NC(=O)[C@@H](NC(=O)[C@@H](N)C(C)C)C(C)C)C(=O)NCC(N)=O | APP | amyloid aggregation, inhibitor, fluorescence | – | 4 µM, 24 h | – | inhibition | 31.8% |
| COCCOCCOCCOC(=O)C(C#N)=Cc1ccc(C=Cc2ccc(N(C)C)cc2)cc1 | APP amyloid-beta aggregates | IgG-amyloid beta binding, inhibitor, ELISA | – | with: aggregated amyloid beta | – | maximum inhibition | 40% |
| CC[C@H](C)[C@H](NC(=O)[C@@H](NC(=O)[C@@H](NC(=O)[C@@H](N)C(C)C)C(C)C)[C@@H](C)CC)C(N)=O | APP | amyloid aggregation, inhibitor, fluorescence | – | 2 µM, 24 h | – | inhibition | 0% |
| COc1cc(OC)c2c(O)c3c(=O)cc(C)oc3c(-c3c(OC)cc4cc5c(c(O)c4c3OC)C(=O)CC(C)(O)O5)c2c1 (stereo not drawn) | APP | thioflavin-T fluorescence | – | 50 µM | relative to: untreated | Aβ aggregation | 41.9 ± 10.4% |
| CC(C)C[C@@H]1NC(=O)CN(C)C(=O)CCCC(=O)NCCCC[C@@H](C(=O)N[C@@H](CCCNC(=N)N)C(N)=O)NC(=O)[C@H](Cc2ccccc2)NC(=O)[C@H](Cc2ccccc2)NC(=O)c2ccccc2NC1=O | APP monomer | amyloid aggregation, inhibitor, fluorescence | – | 40 µM, pH 7.4 | – | inhibition | 75.1% |
| COCCOCCOCCOC(=O)C(C#N)=Cc1ccc2cc(N3CCCCC3)ccc2c1 | APP Aβ42 aggregates | binding, fluorescence spectroscopy | PBS | 4 µM, with: pre-aggregated Aβ(1-42) 5 µM | – | emission maximum | 538 nm |
| N#C/C(=C\c1ccc2cc(N3CCCCC3)ccc2c1)C(=O)OCC(O)CO (stereo not drawn) | APP Aβ42 aggregates | fluorescence | – | with: aggregated Abeta42 5 µM | relative to: free compound | emission intensity increase | 6.6 fold |
| CC[C@H](C)[C@H](NC(=O)[C@@H](NC(=O)[C@@H](N)C(C)C)C(C)C)C(=O)N[C@@H](C)C(N)=O | APP | amyloid aggregation, inhibitor, fluorescence | – | 10 µM, 24 h | – | inhibition | 52.1% |
| COCCOCCOCCOC(=O)C(C#N)=Cc1ccc(N(C)C)cc1 | APP amyloid-beta aggregates | IgG-amyloid beta binding, inhibitor, ELISA | – | with: aggregated amyloid beta | – | maximum inhibition | 81% |
| CC(C)C[C@@H]1NC(=O)CN(C)C(=O)CCC(=O)NCCCC[C@@H](C(=O)N[C@@H](CCCNC(=N)N)C(N)=O)NC(=O)[C@H](Cc2ccccc2)NC(=O)[C@H](Cc2ccccc2)NC(=O)c2ccccc2NC1=O | APP monomer | amyloid aggregation, inhibitor, fluorescence | – | 40 µM, pH 7.4 | – | inhibition | 72% |
| COCCOCCOCCOC(=O)/C(C#N)=C/c1ccc2cc(N3CCOCC3)ccc2c1 | APP Aβ42 aggregates | fluorescence | – | free probe, 5% DMSO in water | – | excitation maximum | 400 nm |
| CCN(CC)c1ccc(C=C(C#N)C(=O)OCCOCCOCCOC)cc1 | APP amyloid-beta aggregates | IgG-amyloid beta binding, inhibitor, ELISA | – | with: aggregated amyloid beta | – | maximum inhibition | 98% |

A few entries again:
| Structure (SMILES) | target | assay | system | setting | scale | endpoint | result |
| --- | --- | --- | --- | --- | --- | --- | --- |
| CC[C@H](C)[C@@H]1NC(=O)[C@H]([C@@H](C)O)NC(=O)[C@H](Cc2ccc(O)cc2)NC(=O)[C@H](CCCNC(=N)N)NC(=O)[C@@H]2CCCN2C(=O)[C@H]2CCCN2C(=O)[C@H]([C@@H](C)O)NC(=O)[C@H](C(C)C)NC(=O)[C@H](C(C)C)NC(=O)[C@H](CCCCN)NC(=O)[C@H](CO)NC(=O)[C@@H](CCC(N)=O)NC(=O)[C@H](CO)NC(=O)[C@H](Cc2ccc(O)cc2)NC(=O)[C@H](CO)NC(=O)[C@H](Cc2ccc(O)cc2)NC(=O)[C@@H]2CCCN2C(=O)[C@H](CO)NC(=O)[C@H](CC(C)C)NC(=O)[C@H](CC(C)C)NC(=O)[C@H](C)NC(=O)[C@H](C)NC1=O | APP Aβ40 | amyloid-beta aggregation, filtration | – | 3 µM, 0 or 24 h, 37 °C, 0.45 µm filter, with: 30 µM amyloid-beta | – | filterable fraction | ~90% |
| CC(C)C[C@@H]1NC(=O)CN(C)C(=O)CCC(=O)NCCCC[C@@H](C(=O)N[C@@H](CCCNC(=N)N)C(N)=O)NC(=O)[C@H](Cc2ccccc2)NC(=O)[C@H](Cc2ccccc2)NC(=O)c2ccccc2NC1=O | APP monomer | amyloid aggregation, inhibitor, fluorescence | – | 40 µM, pH 7.4 | – | inhibition | 72% |
| CCCCN(CCCC)c1ccc(C=C(C#N)C(=O)OCCOCCOCCOC)cc1 | APP amyloid-beta aggregates | IgG-amyloid beta binding, inhibitor, ELISA | – | with: aggregated amyloid beta | – | maximum inhibition | 91% |
| N#C/C(=C\c1ccc2cc(N3CCCCC3)ccc2c1)C(=O)OCC(O)CO (stereo not drawn) | APP Aβ42 aggregates | fluorescence | – | with: aggregated Abeta42 5 µM | relative to: free compound | emission intensity increase | 6.6 fold |
| CC(C)C[C@@H]1NC(=O)CN(C)C(=O)CCCC(=O)NCCCC[C@@H](C(=O)N[C@@H](CCCNC(=N)N)C(N)=O)NC(=O)[C@H](Cc2ccccc2)NC(=O)[C@H](Cc2ccccc2)NC(=O)c2ccccc2NC1=O | APP monomer | amyloid aggregation, inhibitor, fluorescence | – | 40 µM, pH 7.4 | – | inhibition | 75.1% |
